Measured values collected from several papers.
A part holds a random share of what one study measured.
Sequence of UniProt Q9UQM7 (whole entry, looked up): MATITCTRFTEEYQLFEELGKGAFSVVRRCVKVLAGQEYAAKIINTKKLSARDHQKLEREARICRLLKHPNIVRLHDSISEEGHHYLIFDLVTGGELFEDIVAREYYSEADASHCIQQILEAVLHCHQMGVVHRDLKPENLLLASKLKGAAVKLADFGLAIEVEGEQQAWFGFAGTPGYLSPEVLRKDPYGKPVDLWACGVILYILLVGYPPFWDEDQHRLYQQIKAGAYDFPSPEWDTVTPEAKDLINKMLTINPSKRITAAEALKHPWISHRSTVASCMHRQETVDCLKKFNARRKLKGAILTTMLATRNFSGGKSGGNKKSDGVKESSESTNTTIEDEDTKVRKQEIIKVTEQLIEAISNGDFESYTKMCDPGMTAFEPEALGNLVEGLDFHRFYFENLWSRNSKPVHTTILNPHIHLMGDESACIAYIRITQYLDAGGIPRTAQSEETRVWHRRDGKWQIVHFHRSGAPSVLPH
Sequence of UniProt Q6DT37 (whole entry, looked up): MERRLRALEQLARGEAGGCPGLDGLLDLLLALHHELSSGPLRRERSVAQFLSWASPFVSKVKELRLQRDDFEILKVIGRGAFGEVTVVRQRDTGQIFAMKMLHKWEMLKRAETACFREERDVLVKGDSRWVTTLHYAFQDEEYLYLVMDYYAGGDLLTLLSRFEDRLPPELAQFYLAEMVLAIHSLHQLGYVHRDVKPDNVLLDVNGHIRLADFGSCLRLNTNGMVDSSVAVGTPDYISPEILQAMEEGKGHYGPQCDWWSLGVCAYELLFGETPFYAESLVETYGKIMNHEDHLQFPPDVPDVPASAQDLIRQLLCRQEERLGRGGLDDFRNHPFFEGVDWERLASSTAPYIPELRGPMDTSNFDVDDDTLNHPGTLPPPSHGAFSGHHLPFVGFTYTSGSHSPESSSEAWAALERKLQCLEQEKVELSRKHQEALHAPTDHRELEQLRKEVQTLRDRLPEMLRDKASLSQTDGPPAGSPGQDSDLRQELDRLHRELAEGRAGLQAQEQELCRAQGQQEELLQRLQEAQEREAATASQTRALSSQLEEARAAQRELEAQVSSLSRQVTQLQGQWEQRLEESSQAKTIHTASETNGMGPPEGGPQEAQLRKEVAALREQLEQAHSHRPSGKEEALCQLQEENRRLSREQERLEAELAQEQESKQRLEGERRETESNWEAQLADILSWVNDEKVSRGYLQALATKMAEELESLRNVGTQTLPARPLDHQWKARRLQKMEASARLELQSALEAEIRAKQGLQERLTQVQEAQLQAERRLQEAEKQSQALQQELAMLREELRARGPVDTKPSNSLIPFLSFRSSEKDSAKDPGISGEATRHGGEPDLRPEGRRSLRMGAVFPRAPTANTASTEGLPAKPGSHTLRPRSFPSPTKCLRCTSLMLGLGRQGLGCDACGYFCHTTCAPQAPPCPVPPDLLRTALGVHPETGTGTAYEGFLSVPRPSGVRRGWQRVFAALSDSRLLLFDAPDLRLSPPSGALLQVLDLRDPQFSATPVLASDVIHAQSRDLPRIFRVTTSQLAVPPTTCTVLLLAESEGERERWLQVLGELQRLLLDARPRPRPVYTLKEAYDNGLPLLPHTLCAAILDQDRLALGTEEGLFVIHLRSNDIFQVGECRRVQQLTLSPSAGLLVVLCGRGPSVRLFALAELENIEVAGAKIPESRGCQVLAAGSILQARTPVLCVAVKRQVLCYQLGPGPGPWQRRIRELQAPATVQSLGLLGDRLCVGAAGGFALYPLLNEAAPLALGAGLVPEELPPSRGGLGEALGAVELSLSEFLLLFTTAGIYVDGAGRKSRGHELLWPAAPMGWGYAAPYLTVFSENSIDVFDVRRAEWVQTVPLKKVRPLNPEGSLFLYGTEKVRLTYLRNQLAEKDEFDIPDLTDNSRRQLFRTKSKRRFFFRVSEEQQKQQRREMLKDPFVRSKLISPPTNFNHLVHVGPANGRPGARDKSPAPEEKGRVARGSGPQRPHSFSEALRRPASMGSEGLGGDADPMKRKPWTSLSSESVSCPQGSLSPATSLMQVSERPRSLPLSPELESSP
Sequence of UniProt P35626 (whole entry, looked up): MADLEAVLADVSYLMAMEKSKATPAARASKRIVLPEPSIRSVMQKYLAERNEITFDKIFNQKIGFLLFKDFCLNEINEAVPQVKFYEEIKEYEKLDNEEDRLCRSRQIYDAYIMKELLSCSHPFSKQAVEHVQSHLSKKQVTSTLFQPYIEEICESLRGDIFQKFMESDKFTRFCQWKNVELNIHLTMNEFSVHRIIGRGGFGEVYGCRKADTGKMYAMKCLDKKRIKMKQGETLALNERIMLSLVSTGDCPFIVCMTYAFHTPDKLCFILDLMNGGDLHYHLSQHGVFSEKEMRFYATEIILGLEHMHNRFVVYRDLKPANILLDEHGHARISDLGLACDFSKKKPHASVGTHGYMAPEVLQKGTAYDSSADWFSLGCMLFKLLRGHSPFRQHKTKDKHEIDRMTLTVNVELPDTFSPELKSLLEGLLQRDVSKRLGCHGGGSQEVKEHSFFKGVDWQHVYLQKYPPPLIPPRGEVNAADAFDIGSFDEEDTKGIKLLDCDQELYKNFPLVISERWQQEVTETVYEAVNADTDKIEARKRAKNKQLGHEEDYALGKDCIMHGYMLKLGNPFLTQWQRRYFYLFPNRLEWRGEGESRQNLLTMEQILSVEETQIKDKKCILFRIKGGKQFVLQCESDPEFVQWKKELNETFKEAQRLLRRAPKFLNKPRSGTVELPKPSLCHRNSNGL
Sequence of UniProt Q9Y572 (whole entry, looked up): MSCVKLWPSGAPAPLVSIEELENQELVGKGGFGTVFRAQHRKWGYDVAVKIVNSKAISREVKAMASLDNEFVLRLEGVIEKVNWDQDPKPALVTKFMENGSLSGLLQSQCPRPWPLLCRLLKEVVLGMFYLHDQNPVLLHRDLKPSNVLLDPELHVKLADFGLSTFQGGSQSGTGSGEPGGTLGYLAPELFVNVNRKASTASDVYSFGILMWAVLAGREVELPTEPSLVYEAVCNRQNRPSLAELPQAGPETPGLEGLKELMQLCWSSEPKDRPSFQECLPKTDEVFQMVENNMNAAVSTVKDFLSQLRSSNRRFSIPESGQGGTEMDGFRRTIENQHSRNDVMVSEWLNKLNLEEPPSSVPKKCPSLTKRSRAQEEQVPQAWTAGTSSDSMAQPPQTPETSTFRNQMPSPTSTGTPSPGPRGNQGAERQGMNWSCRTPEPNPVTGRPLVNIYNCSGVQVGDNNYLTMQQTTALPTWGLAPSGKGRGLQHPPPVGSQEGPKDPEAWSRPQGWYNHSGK
Sequence of UniProt Q16584 (whole entry, looked up): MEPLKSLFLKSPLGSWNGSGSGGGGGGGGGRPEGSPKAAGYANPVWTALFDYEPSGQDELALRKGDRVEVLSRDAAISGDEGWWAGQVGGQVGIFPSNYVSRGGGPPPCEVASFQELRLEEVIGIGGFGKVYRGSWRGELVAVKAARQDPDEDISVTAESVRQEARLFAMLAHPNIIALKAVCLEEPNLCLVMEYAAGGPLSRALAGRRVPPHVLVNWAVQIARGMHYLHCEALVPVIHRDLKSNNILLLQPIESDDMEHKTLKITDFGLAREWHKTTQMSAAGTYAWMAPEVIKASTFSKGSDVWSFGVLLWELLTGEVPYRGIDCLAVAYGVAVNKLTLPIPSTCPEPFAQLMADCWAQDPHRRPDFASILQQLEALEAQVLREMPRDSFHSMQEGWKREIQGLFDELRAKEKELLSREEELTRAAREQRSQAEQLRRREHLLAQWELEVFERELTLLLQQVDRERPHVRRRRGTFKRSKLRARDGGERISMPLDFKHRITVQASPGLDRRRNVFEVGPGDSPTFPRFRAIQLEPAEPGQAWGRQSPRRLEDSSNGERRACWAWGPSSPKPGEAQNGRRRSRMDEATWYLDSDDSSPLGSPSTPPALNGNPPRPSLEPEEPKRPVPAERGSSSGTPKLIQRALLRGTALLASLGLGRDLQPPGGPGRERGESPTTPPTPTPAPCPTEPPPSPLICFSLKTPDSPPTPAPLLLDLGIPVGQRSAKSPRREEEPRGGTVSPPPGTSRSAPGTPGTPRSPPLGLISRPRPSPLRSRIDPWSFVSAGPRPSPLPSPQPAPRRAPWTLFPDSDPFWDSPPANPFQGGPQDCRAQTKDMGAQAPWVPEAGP

Study 1
Host: mouse
Medium: microsomes or S9
Tested at: 2 µM
Time: 0.5 h
Quantity: remaining compound
COc1cc(OC)c2c(=O)cc(-c3ccccc3)oc2c1: 0.00593%
COc1ccc(-n2nc([S+](C)[O-])c(-n3ccnc3)c2-c2ccc(Cl)c(Cl)c2)cc1 (stereo not drawn): 16.7%
CCOC(=O)c1c(-c2ccccc2)n(C#Cc2ccccc2F)c2ccccc12: 62.7%
Cc1cc(C(=O)NC2CCCc3c2[nH]c2ccccc32)c2c(C)noc2n1 (stereo not drawn): 58.3%
CCCc1c(C(=O)O)cnn1-c1nc(CC)cc(=O)[nH]1: > 99.9%
CC(C)n1c(=O)c2cn(S(=O)(=O)c3ccc(C4CCCCC4)cc3)nc2n(C(C)C)c1=O: > 100%
CCN(CC)S(=O)(=O)c1ccc(NC(=O)c2cc(OC)c(OC)c(OC)c2)cc1: 75.1%
COc1cccc(CN2CCC(C(=O)N3CCN(Cc4ccc5c(c4)OCO5)CC3)CC2)c1OC: 50.5%

Study 2
SMILES: COc1cc(C(=O)N2CCC(N3CCN(C)CC3)CC2)ccc1Nc1ncc2c(n1)N(C)c1ccccc1C(=O)N2C
Quantity: inhibition
mouse PCTAIRE2 and PCTAIRE3; probe labelling, KiNativ ATP probe; mouse brain lysate; 0.1 µM, LYS1 site: -5.8%
MAP3K5 and MAP3K6 mouse; KiNativ profiling; mouse brain lysate; 1 µM, LYS1 site, added: ADP acyl phosphate probe: 4.8%
human PBMC; probe labeling, inhibitor, KiNativ profiling, item: DIkTLNIFLTK; cell lysate; concentration not given, LYS2 site, added: ATP acyl-phosphate probe: 2%
mouse CaMK1δ; probe labelling, KiNativ ADP probe; mouse brain lysate; 1 µM, LYS1 site LFAVkCIPK: -0.6%
EGFR (mouse); probe labelling, KiNativ, item: IPVAIkELR peptide, LYS1 site; brain tissue lysate (mouse); 0.1 µM, added: ADP acyl-phosphate probe: -11.3%
NEK4 (mouse); probe labelling, KiNativ, item: DLkTQNVFLTR peptide, LYS2 site; brain tissue lysate (mouse); 0.1 µM, added: ATP acyl-phosphate probe: -4.3%
p70S6K/p70S6Kb (mouse); probe labelling, inhibitor, KiNativ ActivX ATP probe; mouse brain lysate; 1 µM: 6.1%
PI4KB mouse; KiNativ profiling; mouse brain lysate; 0.1 µM, ATP site, added: ADP acyl phosphate probe: -12.9%
PAN3 human; KiNativ profiling; human PBMC lysate; concentration not given, ATP probe, other site: 8.8%

Study 3
Structure (SMILES): CCCCN(CCCC)C(=O)CN1C[C@H](c2cc(OC)c3c(c2)OCO3)[C@@H](C(=O)O)[C@@H]1CC(C)(C)CCC
Tested at: 1 µM
Quantity: remaining binding
CDC42BPG (Homo sapiens, UniProt Q6DT37); competition binding: 100%
MAP3K11 (Homo sapiens, UniProt Q16584); cell-free assay, competition with immobilised ligand: 100%
Tyrosine-protein kinase ABL1, phosphorylated (ABL1, Homo sapiens, UniProt P00519, Q252H); cell-free assay, competition with immobilised ligand: 97.7%
GRK3 (Homo sapiens, UniProt P35626); cell-free assay, competition with immobilised ligand: 50.8%
DYRK1B (Homo sapiens, UniProt Q9Y463); cell-free assay, competition with immobilised ligand: 100%
CDC42BPB (Homo sapiens, UniProt Q9Y5S2); cell-free assay, competition with immobilised ligand: 100%
CAMK2A (Homo sapiens, UniProt Q9UQM7); cell-free assay, competition with immobilised ligand: 100%
Tyrosine-protein kinase ABL1, phosphorylated (ABL1, Homo sapiens, UniProt P00519, M351T); cell-free assay, competition with immobilised ligand: 96.9%
PIM3 (Homo sapiens, UniProt Q86V86); cell-free assay, competition with immobilised ligand: 100%

Mixed results
CC(C)S(=O)(=O)c1cc2c(Nc3ccc4sc(C5CCCC5)nc4c3)ccnc2cc1OCCO  inhibition (Receptor-interacting serine/threonine-protein kinase 3 (RIPK3, Homo sapiens, UniProt Q9Y572); kinase activity, inhibitor, ADP-Glo; 75 nM, 1 h): 101%

Excerpt of the above (study 3):
CAMK2A (Homo sapiens, UniProt Q9UQM7); cell-free assay, competition with immobilised ligand: 100%
MAP3K11 (Homo sapiens, UniProt Q16584); cell-free assay, competition with immobilised ligand: 100%
CDC42BPB (Homo sapiens, UniProt Q9Y5S2); cell-free assay, competition with immobilised ligand: 100%
